Results pooled from the literature.
Protocols differ between the studies behind these lines. Numbers after ± are the reported error.
SLC5A1: Sodium/glucose cotransporter 1 (SLC5A1, Homo sapiens, UniProt P13866)
Chain of UniProt P13866 (whole entry, looked up): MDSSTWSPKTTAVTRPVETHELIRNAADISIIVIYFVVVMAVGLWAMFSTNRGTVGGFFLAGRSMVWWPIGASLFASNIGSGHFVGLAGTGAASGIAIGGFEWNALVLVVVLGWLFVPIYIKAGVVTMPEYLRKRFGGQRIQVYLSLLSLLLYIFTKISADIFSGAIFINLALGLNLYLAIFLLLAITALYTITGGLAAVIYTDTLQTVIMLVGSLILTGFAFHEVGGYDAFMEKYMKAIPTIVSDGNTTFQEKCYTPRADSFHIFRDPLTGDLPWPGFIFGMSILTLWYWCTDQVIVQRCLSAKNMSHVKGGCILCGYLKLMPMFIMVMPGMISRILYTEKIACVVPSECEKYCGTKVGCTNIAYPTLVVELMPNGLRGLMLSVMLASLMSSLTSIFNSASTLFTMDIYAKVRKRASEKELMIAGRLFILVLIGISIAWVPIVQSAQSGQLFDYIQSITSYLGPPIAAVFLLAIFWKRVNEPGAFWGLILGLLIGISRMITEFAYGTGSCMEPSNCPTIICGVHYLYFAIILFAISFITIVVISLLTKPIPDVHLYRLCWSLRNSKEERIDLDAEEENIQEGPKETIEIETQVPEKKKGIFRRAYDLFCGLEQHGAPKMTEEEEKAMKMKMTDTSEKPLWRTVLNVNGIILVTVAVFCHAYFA
SLCO1B1: Solute carrier organic anion transporter family member 1B1 (SLCO1B1, Homo sapiens, UniProt Q9Y6L6)
Chain of UniProt Q9Y6L6 (whole entry, looked up): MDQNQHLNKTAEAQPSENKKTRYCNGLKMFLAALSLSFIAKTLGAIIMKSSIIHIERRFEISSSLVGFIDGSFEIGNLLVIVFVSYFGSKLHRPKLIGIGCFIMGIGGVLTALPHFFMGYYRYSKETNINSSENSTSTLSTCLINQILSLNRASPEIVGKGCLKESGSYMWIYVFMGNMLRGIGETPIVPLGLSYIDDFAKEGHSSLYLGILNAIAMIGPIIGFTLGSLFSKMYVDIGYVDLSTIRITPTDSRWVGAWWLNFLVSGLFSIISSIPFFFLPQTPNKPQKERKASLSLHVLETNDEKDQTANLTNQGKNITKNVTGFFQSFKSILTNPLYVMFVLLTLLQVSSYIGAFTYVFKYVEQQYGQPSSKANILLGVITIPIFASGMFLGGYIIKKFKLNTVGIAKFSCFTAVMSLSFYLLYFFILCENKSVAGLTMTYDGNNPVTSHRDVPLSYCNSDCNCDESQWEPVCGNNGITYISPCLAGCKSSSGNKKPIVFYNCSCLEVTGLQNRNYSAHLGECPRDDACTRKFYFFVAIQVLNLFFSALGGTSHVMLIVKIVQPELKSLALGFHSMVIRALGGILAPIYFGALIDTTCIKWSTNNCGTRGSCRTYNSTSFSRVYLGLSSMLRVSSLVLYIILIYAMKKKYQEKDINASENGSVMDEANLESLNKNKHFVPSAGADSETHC
CYP3A4 S18F: Cytochrome P450 3A4 (CYP3A4, Homo sapiens, UniProt P08684, S18F)
Chain of UniProt P08684 (whole entry, unmodified, looked up): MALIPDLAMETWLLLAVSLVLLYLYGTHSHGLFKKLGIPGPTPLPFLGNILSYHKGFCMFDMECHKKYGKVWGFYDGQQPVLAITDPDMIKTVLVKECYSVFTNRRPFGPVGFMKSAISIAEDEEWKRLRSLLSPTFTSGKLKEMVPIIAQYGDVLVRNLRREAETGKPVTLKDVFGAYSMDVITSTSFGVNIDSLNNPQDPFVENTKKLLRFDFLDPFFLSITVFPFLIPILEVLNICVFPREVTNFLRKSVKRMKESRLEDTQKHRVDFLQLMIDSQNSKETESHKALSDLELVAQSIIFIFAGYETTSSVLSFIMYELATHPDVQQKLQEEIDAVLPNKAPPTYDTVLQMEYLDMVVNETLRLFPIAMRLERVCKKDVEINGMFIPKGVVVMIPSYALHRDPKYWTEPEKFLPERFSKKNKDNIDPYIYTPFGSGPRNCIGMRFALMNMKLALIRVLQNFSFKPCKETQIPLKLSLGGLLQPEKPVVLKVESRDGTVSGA
Chain of UniProt P11509 (whole entry, looked up): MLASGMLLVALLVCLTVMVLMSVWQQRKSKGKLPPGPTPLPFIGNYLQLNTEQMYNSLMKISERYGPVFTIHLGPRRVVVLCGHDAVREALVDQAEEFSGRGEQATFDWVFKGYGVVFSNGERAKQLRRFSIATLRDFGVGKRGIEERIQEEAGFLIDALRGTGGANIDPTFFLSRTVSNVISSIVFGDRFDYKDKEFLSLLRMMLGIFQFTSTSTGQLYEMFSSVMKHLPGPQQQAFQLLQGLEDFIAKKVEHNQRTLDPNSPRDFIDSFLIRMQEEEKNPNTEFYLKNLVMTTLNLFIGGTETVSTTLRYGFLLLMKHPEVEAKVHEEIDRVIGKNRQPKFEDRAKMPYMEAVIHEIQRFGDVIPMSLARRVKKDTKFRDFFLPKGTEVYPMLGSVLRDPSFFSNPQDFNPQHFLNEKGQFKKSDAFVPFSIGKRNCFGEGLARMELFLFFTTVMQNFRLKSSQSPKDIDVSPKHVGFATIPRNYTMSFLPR
Chain of UniProt P02769 (whole entry, looked up): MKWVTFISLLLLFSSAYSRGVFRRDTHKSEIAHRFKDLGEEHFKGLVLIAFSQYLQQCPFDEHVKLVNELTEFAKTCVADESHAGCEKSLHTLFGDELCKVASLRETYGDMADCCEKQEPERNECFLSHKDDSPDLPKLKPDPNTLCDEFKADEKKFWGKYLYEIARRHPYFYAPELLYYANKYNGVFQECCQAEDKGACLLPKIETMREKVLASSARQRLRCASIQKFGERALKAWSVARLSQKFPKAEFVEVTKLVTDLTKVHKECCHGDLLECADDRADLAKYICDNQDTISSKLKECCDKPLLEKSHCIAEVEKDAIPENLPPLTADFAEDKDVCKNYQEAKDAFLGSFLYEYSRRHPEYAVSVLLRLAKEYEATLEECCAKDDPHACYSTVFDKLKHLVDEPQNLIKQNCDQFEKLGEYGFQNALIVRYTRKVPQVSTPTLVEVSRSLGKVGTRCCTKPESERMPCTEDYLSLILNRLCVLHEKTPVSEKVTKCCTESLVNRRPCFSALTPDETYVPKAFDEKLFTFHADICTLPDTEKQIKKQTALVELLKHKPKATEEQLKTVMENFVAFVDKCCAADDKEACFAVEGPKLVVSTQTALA

For `OC[C@H]1O[C@@H](Oc2cc3c(O)cc(O)cc3[o+]c2-c2ccc(O)c(O)c2)[C@H](O)[C@@H](O)[C@@H]1O`, “transport rate reduction” read 6.35 fold (SLC5A1; Caco-2 BBe1, SLC5A1 siRNA knockdown; 50 µM, 4 h; reference: scrambled siRNA over knockdown).
For `C=CC(=O)N1CCC([C@@H]2CCNc3c(C(N)=O)c(-c4ccc(Oc5ccccc5)cc4)nn32)CC1`, the remaining activity was 87.9 ± 5.7% (SLCO1B1; transport, measured: estradiol-17β-glucuronide uptake; HEK293 transfected; 1 µM; reference: vehicle).
`COc1ccc2[nH]cc(CCNC(C)=O)c2c1` has a plasma concentration of 16.5 ± 9.86 ng/mL (Abcg2 (mouse); FVB/N wild-type male mice; oral, 10 mg/kg, 1 h).
`CC(=O)c1cc(C(=O)N[C@@H](C)Cn2ccc(-c3ccc(C#N)c(Cl)c3)n2)[nH]n1` gave an IC50 of 3 µM (SLCO1B1; uptake, inhibitor; HEK (transfected); 1 h preincubation, added: pravastatin substrate).
For `COCCc1ccc(OCC(O)CNC(C)C)cc1` (stereo not drawn), the unbound fraction was 0.69 (Albumin (ALB, Bos taurus, UniProt P02769); ultrafiltration; Bos taurus, albumin solution; 1 µg/mL, 60 min, added: atractylenolide III 0.1 µg/mL).
For `CN(C)Cc1cc(OCCC[18F])ccc1Sc1ccccc1N`, the tissue uptake was 0.49 ± 0.12 %ID/g (SERT; male Sprague Dawley rat, control, cortex; intravenous, 60 min).
`Cc1coc2c1CC[C@@H](C)C2` has a remaining activity of 56 ± 3% (Cytochrome P450 2A6 (CYP2A6, Homo sapiens, UniProt P11509); inactivator; 5 µM, 10 min, pH 7.4, 30 °C, added: NADPH, glutathione 10 mM).
Under “transport rate reduction”, `C[C@@H]1O[C@@H](OC[C@H]2O[C@@H](Oc3c(-c4ccc(O)c(O)c4)oc4cc(O)cc(O)c4c3=O)[C@H](O)[C@@H](O)[C@@H]2O)[C@H](O)[C@H](O)[C@H]1O` is recorded as 2.6 fold (SLC5A1; Caco-2 BBe1, SLC5A1 siRNA knockdown; 50 µM, 4 h; reference: scrambled siRNA over knockdown).
Under “NADPH oxidation rate”, `NC(=O)N1c2ccccc2C=Cc2ccccc21` is recorded as 56 nmol/nmol P450/min (CYP3A4 S18F; substrate; nanodiscs with CPR; three substrates bound).
`C#CCOc1ccc2ccc(=O)oc2c1` has a KI of 25 µM (human CYP3A4; enzyme inactivation, inactivator; reconstituted system; added: testosterone 6β-hydroxylation substrate).
`CC(=O)[C@H]1CC[C@H]2[C@@H]3CCC4=CC(=O)CC[C@]4(C)[C@H]3CC[C@]12C` — result for “NADPH oxidation rate”: 171 nmol/nmol P450/min (CYP3A4 S18F; substrate; nanodiscs with CPR; one substrate bound).
For `CO[C@H]1/C=C/O[C@@]2(C)Oc3c(C)c(O)c4c(O)c(c(/C=N/N5CCN(C)CC5)c(O)c4c3C2=O)NC(=O)/C(C)=C\C=C\[C@H](C)[C@H](O)[C@@H](C)[C@@H](O)[C@@H](C)[C@H](OC(C)=O)[C@@H]1C`, “transport after preincubation” read “decreased” (SLCO1B1; inhibitor; HEK293 expressing SLCO1B1; 10 and 25 µM, 30 min preincubation, added: [3H]estrone-3-sulfate).

For quick reference, copied from above:
For `CO[C@H]1/C=C/O[C@@]2(C)Oc3c(C)c(O)c4c(O)c(c(/C=N/N5CCN(C)CC5)c(O)c4c3C2=O)NC(=O)/C(C)=C\C=C\[C@H](C)[C@H](O)[C@@H](C)[C@@H](O)[C@@H](C)[C@H](OC(C)=O)[C@@H]1C`, “transport after preincubation” read “decreased” (SLCO1B1; inhibitor; HEK293 expressing SLCO1B1; 10 and 25 µM, 30 min preincubation, added: [3H]estrone-3-sulfate).
